# Measurements gathered from unrelated publications.
# Protocols differ between the studies behind these lines. ± marks the error that the study gave.
# Method: steady-state kinetics
# B1: enzyme (Klebsiella pasteurii, UniProt A0A9Q9S525); chain MSDAKAKITLGGDTAIELDVLKGTLGQDVIDIRSLGSKGVFTFDPGFTSTASCESKITFIDGDEGILLHRGFPIDQLATDSNYLEVCYILLNGEKPTQAQYDEFKTIVTRHTMIHEQITRLFHAFRRDSHPMAVMCGITGALAAFYHDSLDVNNPRHRDIAAFRLLSKMPTMAAMCYKYSIGQPFVYPRNDLSYAGNFLNMMFSTPCEKYEVNPILERAMDRILILHADHEQNASTSTVRTAGSSGANPFACIAAGIASLWGPAHGGANEAALKMLEEISSVEHIPEFVRRAKDKNDSFRLMGFGHRVYKNYDPRATVMRETCHEVLKELGTKDDLLEVAMELEHIALNDPYFIEKKLYPNVDFYSGIILKAMGIPSSMFTVIFAMARTVGWIAHWNEMHSDGMKIARPRQLYTGYEKRDFKNDIAR
# B2: enzyme (Thermotoga maritima, UniProt Q9WXS3); chain MRLNRETIKDRAAWEKIGVRPPYFDLDEVEKNTKEQPKWVHFGGGNIFRGFVAAVLQNLLEEGKEDTGINVIELFDYEVIDKVYKPYDNLSIAVTIKPDGDFEKRIIASVMEALKGDPSHPDWERAKEIFRNPSLQLASLTITEKGYNIEDQAGNLFPQVMEDMKNGPVSPQTSMGKVAALLYERFKAGRLPIALLSLDNFSRNGEKLYSSVKRISEEWVKSGLVEKDFIDYLEKDVAFPWSMIDKIVPGPSEFIKEHLEKLGIEGMEIFVTSKRTHIAPFVNMEWAQYLVIEDSFPNGRPKLEGADRNVFLTDRETVEKAERMKVTTCLNPLHTALAIFGCLLGYKKIADEMKDPLLKKLVEGVGEEGIKVVVDPGIINPREFLNEVINIRLPNPYLPDTPQRIATDTSQKMPIRFGETIKAYHERPDLDPRNLKYIPLVIAGWCRYLMGIDDEGREMQLSPDPLLENLRSYVSKIKFGDPESTDDHLKPILSSQQLFRVNLYEVGLGEKIEELFKKMITGPRAVRKTLEEVVGREDG
# B3: GapA (Pseudomonas putida, UniProt Q88P44); chain MTLRIAINGFGRIGRNVLRALYTQGYRQDLQVVAINDLGDSTMNAHLLKYDSVHGTFDATVEADHESLTVNGDRIAVSAIRNPAELPWKAEAIDVVFECTGLFTDRAKAAAHLAAGAGKVIVSAPAKGADATVVYGVNHDILRASHQIISNASCTTNCLAPIAQVLHREFGIEQGLMTTIHAYTNDQVLTDVYHSDPYRARSATQSMIPSKTGAAEAVGLVLPELAGKLTGMAVRVPVINVSLVDLTVNLKREATAEQVNQLFLEASKHSKVLGYNALPLVSCDFNHNPLSSIFDANHTRANGRMLKVLAWYDNEWGFSNRMLDNCLALHRAG
# B4: enzyme C434A (Methanosarcina mazei, UniProt Q8PVB1); chain MSEQRSVPLREHLLALKPCRHGGLIQETSETYGIPENEILDFSANFNPLGSPFDYPENGLNFEDIIKKSCGKLLEYPDNRYVEFREAAARFVGLGVTPQSIVPGNGSTEIVRLVVESVIEKGDKVLLPWPTFGEYEMQCRITGAEPVCPSQEEVNTLPDEVLEEAKILFICNPNNPTGKLRTREELKVLAERCREHKTLLYVDEAFIELSDPSQSVADLPAENNYVFVMRSLTKDFAIPGIRMGFGIAPPAMADILNTARLSWNLGAIANNTGIALLNIEGGIDSPYLKKAREMILKEGETLKAKIDRIRGFEAGEVNVNFILVDVSKFMLNSSELTARLAARGVLVRDCVSFHGLGKNYIRVAVRTEKENDRLIAAIGDVITEWGREQAKNELQHVIEKASEEGIGGRKTCEYYPCHFEGQNCTFCFCPFYPAENEKTGGKWIQSSRGGRVWSCVDCHLVHKKEIAQKILDCLMHEGDTDELVKVAWKEVMEPIL
# B5: enzyme S252E/S281E/S285E/S287E (Schizosaccharomyces pombe, UniProt P78804); chain MSTPYEPEFQQAYKEIVGSIESSKLFEVHPELKRVLPIISIPERVLEFRVTWEDDKGNCRVNTGYRVQFNSALGPYKGGLRFHPSVNLSILKFLGFEQIFKNALTGLPMGGGKGGSDFDPKGKSDNEIRRFSQAFMRQLFRYIGPQTDVPAGDIGVTGFVVMHMFGEYKRLRNEYSGVVTGKHMLTGGSNIRPEATGYGVVYYVKHMIEHRTKGAETLKGKRVAISGSGNVAQYAALKCIQEGAIVKSISDEKGVLIAKTAEGLVPEEIHEIMALKEKRAEIADEAELCKKHHYIAGARPWTNVGEIDIALPCATQNEVSGEEAAALIKQGCRYVAEGSNMGSSAEAVEVFEKSRASGEGCWLAPGKAANAGGVAVSGLEMAQNAQFSTWTHAEVDAKLAGIMQNIFEQSTDVASKYCDSGSNNIPSLVDGANIAGFLKVATAMQAVGDWW
# B6: enzyme H130Y (Salinispora arenicola, UniProt A8M783); chain MASTPWISFTTDYGLADGFVAACHGVLARLAPTARVIDVTHLVPPGDVRRGAAVLAQTVPYLPAAVHVAVVDPGVGTARRAIALTAGNGLLVGPDNGLLLDAATALGGVDAAVELTNPDWLGARMSATFYGRDVFAPVAARLALGAPLADAGPAVEPGALVRLPTPLVQPETDGFTAEVLTVDHFGNVQLAATGALLESLPRSLRVAHRPAVHARTFDDAPPGGLLVHVDSAGLVAVAVNGGRAADLLAVTPGDQLRVTAG
# B7: acsA (Pseudomonas chlororaphis, UniProt Q5CD72); chain MRDYEHVVESFDYLQSATQDLHGELTALNACVECCDRHAHGEAVALYCEAQDGHAERYRFRDLQRQAARFGNFLREQGVKPGDRVAGLMPRTVELLIAILGTWRIGAVYQPLFTAFGPKAIEQRLNCSNARWIVTDPHNRPKLDDVTDCPSIVVTGGAPQNPADHHFWSALNRQADDCAPVLLDASAPFLLMCTSGTTGPAKPLEVPLSAILAFKGYMRDAIDLRADDRFWNLADPGWAYGLYYAVTGPLACGYATLFYDGPFTVESTRHIIAKYAINNLAGSPTAYRFLIAAGAEFADAVRGRLRAVSSAGEPLNPQVVRWFAEQLGVVIHDHYGQTEIGMVLCNHHGLRHPVREGSAGYAVPGYRIVVLDKAHRELPAGQPGVLAVDRERSPLCWFDGYLGMPTQAFAGRYYLSGDIVELNDDGSISFVGRNDDLITTSGYRVGPFDVESALIEHPAVVEAAVIGKPDPQRTELIKAFVVLNTPYLPSPELAEELRLHVRQRLAAHAYPREMEFVDHLPKTPSGKLQRFILRNQEIAKQQALG
# B8: aspC A106G/A17N/A218G/A278L/A281T/A8Q/D18E/F210I/F212I/F350Y/G15S/G249S/I187A/I279A/I29V/I33V/I341V/I5L/I68L/I71L/L46M/M321L/M380L/N285S/N30D/N64T/S129T/S135A/S273G/S351L/T100S/V125I/V136I/V375I/Y244C (Escherichia coli, UniProt P00509); chain MFENLTAQPADPILSLNELFRADERPGKVDLGVGVYKDETGKTPVMTSVKKAEQYLLENETTKTYLGLDGLPEFGRCTQELLFGKGSALINDKRARTAQSPGGTGGLRVAADFLAKNTSVKRVWISNPTWPNHKAIFNSAGLEVREYAYYDAENHTLDFDALINSLNEAQAGDVVLFHGCCHNPTGADPTLEQWQTLAQLSVEKGWLPLIDIAYQGFGRGLEEDAEGLRAFAAMHKELIVASSCSKNFSLYNERVGACTLVAADSETVDRAFGQMKALARTNYSSPPAHGASVVATILSNDALRAIWEQELTDMRQRIQRLRQLFVNTLQEKGANRDFSFVIKQNGMFSYLGLTKEQVLRLREEFGVYAVASGRINVAGLTPDNMAPLCEAIVAVL
# UniProt Q96C36, sequence (whole entry, unmodified, looked up): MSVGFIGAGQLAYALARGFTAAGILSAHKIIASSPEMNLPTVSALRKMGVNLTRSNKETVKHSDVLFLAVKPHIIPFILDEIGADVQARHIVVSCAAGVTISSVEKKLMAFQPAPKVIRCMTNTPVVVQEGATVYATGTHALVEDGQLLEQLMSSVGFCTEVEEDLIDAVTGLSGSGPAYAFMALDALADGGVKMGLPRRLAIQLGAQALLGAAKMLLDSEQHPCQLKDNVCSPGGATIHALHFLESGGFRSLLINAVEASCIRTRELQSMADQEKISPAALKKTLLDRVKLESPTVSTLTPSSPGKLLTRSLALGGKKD
# UniProt P42328, sequence (whole entry, looked up): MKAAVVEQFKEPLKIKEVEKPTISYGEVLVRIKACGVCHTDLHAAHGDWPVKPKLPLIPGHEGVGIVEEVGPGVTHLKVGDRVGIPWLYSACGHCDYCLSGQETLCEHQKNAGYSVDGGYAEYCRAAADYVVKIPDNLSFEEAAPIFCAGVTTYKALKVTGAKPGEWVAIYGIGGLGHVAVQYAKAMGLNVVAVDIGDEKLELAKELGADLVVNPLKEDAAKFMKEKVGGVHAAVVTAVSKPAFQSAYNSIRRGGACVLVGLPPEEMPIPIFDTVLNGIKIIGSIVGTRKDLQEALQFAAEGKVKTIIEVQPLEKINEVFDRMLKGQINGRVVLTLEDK
# UniProt Q8ZKF6, sequence (whole entry, looked up): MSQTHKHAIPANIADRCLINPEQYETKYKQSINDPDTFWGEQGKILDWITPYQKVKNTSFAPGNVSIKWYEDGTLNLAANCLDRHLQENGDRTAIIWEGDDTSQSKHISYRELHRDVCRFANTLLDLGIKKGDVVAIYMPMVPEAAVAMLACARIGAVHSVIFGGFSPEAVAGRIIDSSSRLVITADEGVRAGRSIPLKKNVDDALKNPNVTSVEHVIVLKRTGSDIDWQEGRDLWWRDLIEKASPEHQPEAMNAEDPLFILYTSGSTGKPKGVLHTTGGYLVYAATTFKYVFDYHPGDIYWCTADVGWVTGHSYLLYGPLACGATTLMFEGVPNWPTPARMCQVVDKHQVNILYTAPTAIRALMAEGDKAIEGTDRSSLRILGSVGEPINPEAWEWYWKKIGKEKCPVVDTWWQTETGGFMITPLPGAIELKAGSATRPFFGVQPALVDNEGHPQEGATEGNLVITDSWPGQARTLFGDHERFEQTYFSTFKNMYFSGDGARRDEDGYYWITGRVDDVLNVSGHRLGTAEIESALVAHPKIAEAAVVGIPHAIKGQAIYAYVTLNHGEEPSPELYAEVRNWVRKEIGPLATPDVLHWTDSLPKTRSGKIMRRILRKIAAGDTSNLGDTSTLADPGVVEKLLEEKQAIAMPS
# UniProt P07004, sequence (whole entry, looked up): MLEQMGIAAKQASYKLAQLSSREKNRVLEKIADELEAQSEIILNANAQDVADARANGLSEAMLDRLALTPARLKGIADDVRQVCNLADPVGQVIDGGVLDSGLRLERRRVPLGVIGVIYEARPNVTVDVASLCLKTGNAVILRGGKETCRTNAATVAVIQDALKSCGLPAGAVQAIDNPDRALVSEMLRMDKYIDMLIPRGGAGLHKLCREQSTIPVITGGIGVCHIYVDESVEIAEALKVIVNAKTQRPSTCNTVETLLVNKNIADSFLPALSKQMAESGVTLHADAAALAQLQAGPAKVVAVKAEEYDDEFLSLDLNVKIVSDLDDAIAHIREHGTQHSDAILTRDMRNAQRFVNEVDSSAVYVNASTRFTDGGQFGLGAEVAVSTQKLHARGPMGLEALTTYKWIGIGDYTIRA
Substance,substrate,pH,temperature,notes,with,kcat
B1 (enzyme),O=C(O)CC(=O)C(=O)O,pH 7.5,30 °C,apparent,,106 ± 7 s⁻¹
B2 (enzyme),O=C(O)[C@@H](O)[C@@H](O)[C@H](O)[C@H](O)CO,pH 8.5,,,NAD,4.2 ± 0.1 s⁻¹
HNL C81L/E79H/G176S/H103V/K236M/N104A/S105A/T11G/V106F (Hevea brasiliensis),CC(=O)Oc1ccc([N+](=O)[O-])cc1,pH 7.2,22 °C,,,0.135 ± 0.00667 s⁻¹
"PYCR2 (Homo sapiens, UniProt Q96C36)",NC(=O)C1=CN([C@@H]2O[C@H](COP(=O)(O)OP(=O)(O)OC[C@H]3O[C@@H](n4cnc5c(N)ncnc54)[C@H](OP(=O)(O)O)[C@@H]3O)[C@@H](O)[C@H]2O)C=CC1,pH 7.5,37 °C,"apparent, cofactor varied",DL-P5C 5000 µM,24 ± 0.7 s⁻¹
B3 (GapA),O=C[C@H](O)COP(=O)(O)O,,,,NAD+,31.9 ± 0.4 s⁻¹
B4 (enzyme C434A),Nc1ncnc2c1ncn2[C@@H]1O[C@H](COP(=O)(O)OP(=O)(O)OP(=O)(O)O)[C@@H](O)[C@H]1O,pH 8.5,25 °C,"apparent, anoxic",L-Thr 10 mM,0.127 ± 0.004 s⁻¹
B5 (enzyme S252E/S281E/S285E/S287E),NC(=O)C1=CN([C@@H]2O[C@H](COP(=O)(O)OP(=O)(O)OC[C@H]3O[C@@H](n4cnc5c(N)ncnc54)[C@H](O)[C@@H]3O)[C@@H](O)[C@H]2O)C=CC1,pH 7,30 °C,apparent,,140 ± 3 s⁻¹
B6 (enzyme H130Y),C[S+](CC[C@H](N)C(=O)O)C[C@H]1O[C@@H](n2cnc3c(N)ncnc32)[C@H](O)[C@@H]1O,pH 7.9,37 °C,apparent,1-200 µM SAM,0.000667 ± 0.000133 s⁻¹
"acs (Salmonella enterica, UniProt Q8ZKF6)",CCC(=O)O,pH 7,30 °C,apparent,,3.7 s⁻¹
"enzyme (Oryza sativa, UniProt Q6ZGQ4)",O=[N+]([O-])c1ccc(O[C@@H]2OC[C@@H](O)[C@H](O)[C@H]2O)cc1,pH 4,40 °C,apparent,,12 ± 0.2 s⁻¹
"enzyme (Geobacillus stearothermophilus, UniProt P42328)",NC(=O)c1ccc[n+]([C@@H]2O[C@H](COP(=O)(O)OP(=O)(O)OC[C@H]3O[C@@H](n4cnc5c(N)ncnc54)[C@H](O)[C@@H]3O)[C@@H](O)[C@H]2O)c1,pH 8,,"apparent, cofactor varied",,12.3 ± 0.16 s⁻¹
"enzyme (Pseudomonas poae, UniProt A0A2S9EJ63)",O=Cc1ccc(C=O)o1,pH 8,30 °C,,2 µM FAD,0.00841 s⁻¹
B7 (acsA),O=C(O)CCC(F)(F)F,pH 7,,,,0.0333 ± 0.0333 s⁻¹
"enzyme Y41F (Homo sapiens, UniProt Q08623)",O=c1[nH]cc([C@@H]2O[C@H](COP(=O)(O)O)[C@@H](O)[C@H]2O)c(=O)[nH]1,pH 7,25 °C,,,1.62 s⁻¹
B8,N[C@@H](CC(=O)O)C(=O)O,pH 7.5,25 °C,,PMP 20 µM,0.27 s⁻¹
"proA (Escherichia coli, UniProt P07004)",N[C@@H](CCC=O)C(=O)O,pH 7.6,,apparent,1 mM NADP+,15 ± 1 s⁻¹
